Results from different studies.
Values joined by “and” are separate records of one study, mostly repeats; a detail may differ. ± gives the spread as reported.
PSMB7 in 20S proteasome: Proteasome subunit beta type-7, in 20S proteasome (PSMB7, Homo sapiens, UniProt Q99436)
UniProt Q99436, sequence (whole entry, looked up): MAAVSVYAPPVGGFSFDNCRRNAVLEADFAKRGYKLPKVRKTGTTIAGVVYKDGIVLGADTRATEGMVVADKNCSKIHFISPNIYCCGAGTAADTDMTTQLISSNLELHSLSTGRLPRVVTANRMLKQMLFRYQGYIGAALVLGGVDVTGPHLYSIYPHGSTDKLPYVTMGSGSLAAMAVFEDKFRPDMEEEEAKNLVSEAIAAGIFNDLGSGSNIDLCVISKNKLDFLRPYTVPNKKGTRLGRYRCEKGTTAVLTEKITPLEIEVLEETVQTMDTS
CD38: ADP-ribosyl cyclase/cyclic ADP-ribose hydrolase 1 (CD38, Homo sapiens, UniProt P28907)
UniProt P28907, sequence (whole entry, looked up): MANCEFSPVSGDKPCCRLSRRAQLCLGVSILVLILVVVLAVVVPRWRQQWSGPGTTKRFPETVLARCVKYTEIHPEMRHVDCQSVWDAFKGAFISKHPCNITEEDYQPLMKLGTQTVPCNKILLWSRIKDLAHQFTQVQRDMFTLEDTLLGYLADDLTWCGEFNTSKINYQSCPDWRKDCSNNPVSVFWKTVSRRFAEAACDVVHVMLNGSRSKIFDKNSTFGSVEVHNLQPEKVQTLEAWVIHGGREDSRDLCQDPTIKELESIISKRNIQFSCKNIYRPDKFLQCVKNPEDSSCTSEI
Seed linoleate 13S-lipoxygenase-1: Seed linoleate 13S-lipoxygenase-1 (Glycine max, UniProt P08170)
UniProt P08170, sequence (whole entry, looked up): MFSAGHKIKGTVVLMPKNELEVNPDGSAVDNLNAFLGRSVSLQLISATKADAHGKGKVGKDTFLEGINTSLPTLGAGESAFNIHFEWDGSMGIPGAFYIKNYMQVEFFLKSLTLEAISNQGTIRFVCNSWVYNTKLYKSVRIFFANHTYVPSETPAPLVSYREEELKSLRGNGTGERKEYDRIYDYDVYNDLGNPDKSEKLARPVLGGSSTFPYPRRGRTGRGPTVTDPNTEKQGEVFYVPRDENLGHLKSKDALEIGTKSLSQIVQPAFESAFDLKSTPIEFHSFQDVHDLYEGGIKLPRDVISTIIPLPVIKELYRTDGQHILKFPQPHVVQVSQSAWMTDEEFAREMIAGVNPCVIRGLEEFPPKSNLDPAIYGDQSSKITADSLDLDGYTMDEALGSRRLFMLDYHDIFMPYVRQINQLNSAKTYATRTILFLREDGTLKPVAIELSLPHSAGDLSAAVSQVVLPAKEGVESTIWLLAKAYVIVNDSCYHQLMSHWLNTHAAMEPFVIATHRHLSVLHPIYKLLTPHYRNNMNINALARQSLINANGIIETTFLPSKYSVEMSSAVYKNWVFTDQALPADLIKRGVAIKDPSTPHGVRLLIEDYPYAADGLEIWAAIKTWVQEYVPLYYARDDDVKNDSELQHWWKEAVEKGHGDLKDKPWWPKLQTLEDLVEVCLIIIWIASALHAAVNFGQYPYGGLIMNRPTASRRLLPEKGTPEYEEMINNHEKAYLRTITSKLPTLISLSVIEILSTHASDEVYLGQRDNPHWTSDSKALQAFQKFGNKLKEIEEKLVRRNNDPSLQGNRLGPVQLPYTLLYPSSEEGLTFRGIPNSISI
JAK2: Tyrosine-protein kinase JAK2 (JAK2, Homo sapiens, UniProt O60674)
UniProt O60674, sequence (whole entry, looked up): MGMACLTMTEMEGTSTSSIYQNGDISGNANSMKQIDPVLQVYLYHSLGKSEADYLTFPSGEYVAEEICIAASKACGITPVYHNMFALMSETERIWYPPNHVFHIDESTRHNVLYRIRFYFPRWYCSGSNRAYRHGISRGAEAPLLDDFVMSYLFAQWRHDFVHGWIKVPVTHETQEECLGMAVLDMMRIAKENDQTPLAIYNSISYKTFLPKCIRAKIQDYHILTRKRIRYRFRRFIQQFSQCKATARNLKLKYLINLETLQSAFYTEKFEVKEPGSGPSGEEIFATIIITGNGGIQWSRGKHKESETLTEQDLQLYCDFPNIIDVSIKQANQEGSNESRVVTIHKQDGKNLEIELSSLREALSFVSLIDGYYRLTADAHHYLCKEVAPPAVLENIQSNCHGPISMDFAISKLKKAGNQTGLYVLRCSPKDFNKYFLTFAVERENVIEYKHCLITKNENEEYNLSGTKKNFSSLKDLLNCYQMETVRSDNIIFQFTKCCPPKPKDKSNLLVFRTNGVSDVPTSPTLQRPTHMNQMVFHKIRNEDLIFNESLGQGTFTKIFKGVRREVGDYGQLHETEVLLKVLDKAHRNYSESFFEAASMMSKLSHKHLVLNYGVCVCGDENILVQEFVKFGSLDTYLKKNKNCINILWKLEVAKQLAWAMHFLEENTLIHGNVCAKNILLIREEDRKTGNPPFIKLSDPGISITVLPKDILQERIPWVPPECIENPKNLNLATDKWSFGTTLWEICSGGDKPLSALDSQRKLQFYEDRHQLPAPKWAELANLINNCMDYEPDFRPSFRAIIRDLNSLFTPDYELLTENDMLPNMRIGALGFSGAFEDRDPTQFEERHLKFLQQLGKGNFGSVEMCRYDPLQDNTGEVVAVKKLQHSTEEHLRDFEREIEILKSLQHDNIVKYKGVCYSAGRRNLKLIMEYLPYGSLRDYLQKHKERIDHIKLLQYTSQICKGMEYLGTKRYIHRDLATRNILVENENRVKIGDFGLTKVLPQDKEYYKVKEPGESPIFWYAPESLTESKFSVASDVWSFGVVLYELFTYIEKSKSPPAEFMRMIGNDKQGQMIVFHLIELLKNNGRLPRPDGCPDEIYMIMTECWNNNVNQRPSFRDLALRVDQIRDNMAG
PTGS1: Prostaglandin G/H synthase 1 (PTGS1, Homo sapiens, UniProt P23219)
UniProt P54764, sequence (whole entry, looked up): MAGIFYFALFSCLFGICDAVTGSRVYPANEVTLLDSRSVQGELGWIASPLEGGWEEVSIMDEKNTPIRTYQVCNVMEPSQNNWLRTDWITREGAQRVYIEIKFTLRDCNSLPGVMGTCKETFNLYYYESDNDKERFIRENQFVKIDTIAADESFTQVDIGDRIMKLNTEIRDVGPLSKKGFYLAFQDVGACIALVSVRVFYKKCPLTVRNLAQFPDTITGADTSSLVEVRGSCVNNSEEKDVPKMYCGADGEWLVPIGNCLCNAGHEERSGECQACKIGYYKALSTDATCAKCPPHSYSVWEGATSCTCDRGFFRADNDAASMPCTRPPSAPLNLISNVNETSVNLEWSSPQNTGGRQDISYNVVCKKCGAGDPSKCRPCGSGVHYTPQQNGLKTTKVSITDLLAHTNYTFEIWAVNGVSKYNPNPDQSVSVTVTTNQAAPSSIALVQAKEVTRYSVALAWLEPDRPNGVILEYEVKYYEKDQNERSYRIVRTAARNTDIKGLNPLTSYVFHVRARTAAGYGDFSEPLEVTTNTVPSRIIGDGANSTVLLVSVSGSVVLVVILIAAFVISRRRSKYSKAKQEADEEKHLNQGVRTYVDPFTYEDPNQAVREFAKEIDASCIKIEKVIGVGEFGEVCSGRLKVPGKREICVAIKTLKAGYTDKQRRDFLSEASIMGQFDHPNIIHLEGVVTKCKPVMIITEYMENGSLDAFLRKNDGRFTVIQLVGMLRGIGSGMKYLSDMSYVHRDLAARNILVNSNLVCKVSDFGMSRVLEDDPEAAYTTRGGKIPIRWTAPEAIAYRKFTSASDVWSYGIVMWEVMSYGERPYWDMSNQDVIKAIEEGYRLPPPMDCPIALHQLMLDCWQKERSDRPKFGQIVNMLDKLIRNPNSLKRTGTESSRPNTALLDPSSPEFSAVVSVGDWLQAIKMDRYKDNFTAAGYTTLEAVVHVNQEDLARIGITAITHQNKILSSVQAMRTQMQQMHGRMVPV
UniProt P23219, sequence (whole entry, looked up): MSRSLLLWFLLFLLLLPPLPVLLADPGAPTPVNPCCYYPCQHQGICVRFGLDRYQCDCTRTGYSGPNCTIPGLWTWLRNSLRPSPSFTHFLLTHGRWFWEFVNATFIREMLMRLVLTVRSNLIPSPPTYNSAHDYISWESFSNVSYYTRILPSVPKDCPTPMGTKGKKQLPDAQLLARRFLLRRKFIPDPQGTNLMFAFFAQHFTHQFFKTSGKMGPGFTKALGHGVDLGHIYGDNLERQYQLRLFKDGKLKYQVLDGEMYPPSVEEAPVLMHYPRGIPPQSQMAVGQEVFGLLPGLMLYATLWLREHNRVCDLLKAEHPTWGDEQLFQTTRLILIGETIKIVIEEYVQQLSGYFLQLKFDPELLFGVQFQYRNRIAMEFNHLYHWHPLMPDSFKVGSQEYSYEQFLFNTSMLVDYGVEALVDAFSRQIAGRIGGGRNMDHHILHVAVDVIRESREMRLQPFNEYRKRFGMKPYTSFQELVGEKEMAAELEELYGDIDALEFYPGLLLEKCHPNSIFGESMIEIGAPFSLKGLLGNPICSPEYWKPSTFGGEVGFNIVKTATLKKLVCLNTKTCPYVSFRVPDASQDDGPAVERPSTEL
UniProt P01902, sequence (whole entry, unmodified, looked up): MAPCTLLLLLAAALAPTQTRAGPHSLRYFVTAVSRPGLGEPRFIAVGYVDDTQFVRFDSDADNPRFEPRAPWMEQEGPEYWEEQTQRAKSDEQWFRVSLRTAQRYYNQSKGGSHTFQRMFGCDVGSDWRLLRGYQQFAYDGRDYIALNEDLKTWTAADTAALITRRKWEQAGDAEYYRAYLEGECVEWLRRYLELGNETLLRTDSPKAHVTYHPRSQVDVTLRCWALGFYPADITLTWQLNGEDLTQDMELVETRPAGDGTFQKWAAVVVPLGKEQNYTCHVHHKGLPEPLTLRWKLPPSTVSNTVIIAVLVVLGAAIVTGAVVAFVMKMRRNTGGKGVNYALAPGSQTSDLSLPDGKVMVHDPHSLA
UniProt P30989, sequence (whole entry, looked up): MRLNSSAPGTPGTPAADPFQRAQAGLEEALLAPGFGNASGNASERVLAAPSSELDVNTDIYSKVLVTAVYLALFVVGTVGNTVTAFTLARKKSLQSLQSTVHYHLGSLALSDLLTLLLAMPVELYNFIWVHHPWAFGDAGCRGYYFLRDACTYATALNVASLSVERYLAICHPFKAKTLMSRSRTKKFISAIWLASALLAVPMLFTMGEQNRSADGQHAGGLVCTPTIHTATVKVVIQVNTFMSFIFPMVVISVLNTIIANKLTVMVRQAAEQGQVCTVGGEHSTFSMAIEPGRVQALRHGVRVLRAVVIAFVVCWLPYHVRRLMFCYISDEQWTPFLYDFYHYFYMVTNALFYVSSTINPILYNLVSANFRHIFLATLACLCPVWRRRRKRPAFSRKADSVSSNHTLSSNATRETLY

Compound	target	assay	system	setting	IC50
CCOC(=O)C(CS)N1C(=O)c2ccc(N(C)C)cc2C1=O (centres unmarked)	Metallo-beta-lactamase type 2 (Serratia marcescens, UniProt P52699)	enzyme activity, inhibitor	–	pH 7.0, together with: chromacef 25 µM	0.026 ± 0.003 µM
C=C(NC(=O)C(=C)NC(=O)c1csc(C2=NC3c4csc(n4)C4NC(=O)c5csc(n5)C(C(C)(O)C(C)O)NC(=O)C5CSC(=N5)C(=CC)NC(=O)C(C(C)O)NC(=O)c5csc(n5)C3(CC2)NC(=O)C(C)NC(=O)C(=C)NC(=O)C(Cc2ccccc2)NC(=O)C(C(C)CC)NC2C=Cc3c(C(C)O)cc(nc3C2O)C(=O)OC4C)n1)C(N)=O (centres unmarked)	PSMB7 in 20S proteasome	trypsin-like activity, inhibitor	purified human 20S proteasome	37 °C, 15 min preincubation, together with: Boc-Leu-Arg-Arg-AMC	0.18 ± 0.02 µM
O=C(c1cccc([N+](=O)[O-])c1)N1CCN(c2ccc(F)cc2)CC1	SEC14 (Saccharomyces cerevisiae, UniProt P24280)	enzyme activity, inhibitor, radiometric	–	–	> 100 µM
Cn1c(=O)nc2[nH]nc(-c3cc(Br)ccc3F)nc-2c1=O	Trypanothione reductase (TPR, Trypanosoma brucei brucei, UniProt P39051)	inhibitor, DTNB-coupled colourimetric	–	together with: substrate at Km	> 100 µM
CNC(=O)C1CCN(c2cc(C)c(F)cc2NC(=O)c2ccc(-c3cc(O)ccc3C)c(C)c2)CC1	Ephrin type-A receptor 4 (EPHA4, Homo sapiens, UniProt P54764)	target engagement in cells, BRET	–	–	0.04 µM and 0.0396 µM
COCCCN1CCc2c(Cc3ccc(Cl)cc3)[nH]c3c(OC(F)F)ccc(c23)C1=O	High affinity cGMP-specific 3',5'-cyclic phosphodiesterase 9A (PDE9A, Homo sapiens, UniProt O76083)	enzyme activity, inhibitor	–	–	> 10 µM
CC(C)CCn1c(OC2CCN(C(=O)C3CC3)CC2)nc2c1c(=O)n(C)c(=O)n2C	Aldehyde dehydrogenase, mitochondrial (ALDH2, Homo sapiens, UniProt P05091)	enzyme activity, inhibitor	–	–	2.4 µM
N#C/C(=C\c1cccc(-c2ccncc2)c1)C(N)=O	Ribosomal protein S6 kinase alpha-3, C-terminal kinase domain (RPS6KA3, Homo sapiens, UniProt P51812, T493M)	kinase activity, inhibitor	–	together with: 0.1 mM ATP	0.43 µM
N[C@@H](CCC(=O)N[C@@H](CS[Se]Cc1ccc(-c2cccc(C(O)c3ccc(Cl)c(Cl)c3)c2)cc1)C(=O)NCC(=O)O)C(=O)O (some centres unmarked)	Tyrosine-protein phosphatase non-receptor type 5 (PTPN5, Homo sapiens, UniProt P54829)	enzyme activity, inhibitor	–	together with: pNPP, GSH 1 mM	1.5 ± 0.7 µM
CC(=O)N[C@H]1[C@@H](OC(=O)NCCCOCCOCCOCCCNC(=O)O[C@H]2O[C@H](CNC(=O)OCCOCCOCCOCCOCCOCCOCCOCCOCCOC(=O)NC[C@H]3O[C@H](OC(=O)NCCCOCCOCCOCCCNC(=O)O[C@H]4O[C@H](CO)[C@@H](O)[C@H](O)[C@H]4NC(C)=O)[C@H](NC(C)=O)[C@@H](O)[C@@H]3O)[C@@H](O)[C@H](O)[C@H]2NC(C)=O)O[C@H](CO)[C@@H](O)[C@@H]1O	wheat germ agglutinin (Triticum vulgaris)	binding to immobilised GlcNAc, inhibitor, enzyme-linked lectin	–	together with: HRP-labelled WGA	0.035 µM
COc1cc(-c2nc3ccc(C(=O)NCCCN4CCN(c5ccccc5)C(=O)C4)cc3n2C2CCC2)cc(OC)c1OC	Activin receptor type-1 (ACVR1, Homo sapiens, UniProt Q04771)	target engagement in cells, BRET	–	–	1.82 µM
COC(=O)N1CCC(CN2CCC(CNC(=O)c3cccc4[nH]c(C(C)C)nc34)CC2)CC1	Multidrug and toxin extrusion protein 2 (SLC47A2, Homo sapiens, UniProt Q86VL8)	transporter uptake, inhibitor	–	–	4.84 µM
C=CC(=O)N1CCc2ccc(-n3c(=O)ccc4cnc5ccc(-c6cnn(C)c6)cc5c43)cc21	Serine/threonine-protein kinase Nek2 (NEK2, Homo sapiens, UniProt P51955)	enzyme activity, inhibitor	–	–	> 10 µM
Cc1cc(O)c(C(=O)/C=C/c2ccc(Cl)cc2)c(=O)o1	CD38	enzyme activity, inhibitor, fluorescence	–	–	15 µM
CC(C)C[C@H](NC(=O)[C@H](CCC(=O)O)NC(=O)[C@H](CC(=O)O)NC(=O)[C@H](CCC(=O)O)NC(=O)[C@H](CC(C)C)NC(=O)[C@H](CC(C)C)NC(=O)CNC(=O)[C@H](CCC(N)=O)NC(=O)[C@H](CC(C)C)NC(=O)[C@@H](N)CCC(=O)O)C(=O)O	H-2 class I histocompatibility antigen, K-D alpha chain, 29 (H2-K1, Mus musculus, UniProt P01902)	binding, competitor, radioligand competition	–	purified MHC, mutant peptide, together with: radiolabeled standard peptide	> 70 µM
CC1=C2C(=O)C3CC[C@@H](C)C2(CC1)C3(C)C (some centres unmarked)	Dipeptidyl peptidase 4 (DPP4, Sus scrofa, UniProt P22411)	enzyme activity, inhibitor, absorbance	–	–	> 229 µM
N#Cc1c(Nc2c(Cl)ccc3ncccc23)s[nH]c1=O	NAD(+) hydrolase SARM1 (SARM1, Homo sapiens, UniProt Q6SZW1, C635A)	enzyme activity, inhibitor	–	–	17 µM
CN(CCO)c1ccc(/C=C/C(=O)c2ccco2)cc1	Seed linoleate 13S-lipoxygenase-1	enzyme activity, inhibitor, absorbance	–	–	59.4 µM

Compound	target	assay	system	setting	IC50
CC(=O)NCCN(CC(=O)NCCN(CC(=O)NCCN(CC(=O)NCCC(N)=O)C(=O)C[C@@H](N)CCCNC(=N)N)C(=O)C[C@@H](N)CCCCN)C(=O)C[C@@H](N)Cc1ccccc1	HIV-1 TAR RNA	Tat/TAR complex displacement, FRET	–	room temperature, together with: 10 nM Tat/TAR complex	1.5 ± 0.6 µM
CCn1c(C)c(C(=O)c2ccccc2)c(=O)n1-c1ccc(C)c(C)c1	JAK2	enzyme activity, inhibitor, ADP detection	–	–	0.0194 µM
C=C(NC(=O)C(=C)NC(=O)c1csc(C2=NC3c4csc(n4)C4NC(=O)c5csc(n5)C(C(C)(O)C(C)O)NC(=O)C5CSC(=N5)C(=CC)NC(=O)C(C(C)O)NC(=O)c5csc(n5)C3(CC2)NC(=O)C(Cc2cnc[nH]2)NC(=O)C(=C)NC(=O)C(C)NC(=O)C(C(C)CC)NC2C=Cc3c(C(C)O)cc(nc3C2O)C(=O)OC4C)n1)C(N)=O (centres unmarked)	PSMB7 in 20S proteasome	trypsin-like activity, inhibitor	purified 20S proteasome	15 min preincubation, 37 °C, together with: Boc-Leu-Arg-Arg-AMC substrate	0.51 ± 0.09 µM
CCC(CSCC(NC(=O)CCC(N)C(=O)O)C(=O)NCC(=O)O)C(=O)c1ccc(OCC(=O)NCCCCNC(=O)COc2ccc(C(=O)C(CC)CSCC(NC(=O)CCC(N)C(=O)O)C(=O)NCC(=O)O)c(Cl)c2Cl)c(Cl)c1Cl (centres unmarked)	Glutathione S-transferase Mu 2 (Homo sapiens, UniProt P28161)	enzyme activity, inhibitor, CDNB-GSH conjugation	–	preincubation 2.0 min with enzyme, together with: CDNB, GSH	~0.0075 µM
COc1ccc2nc(-c3cc(-c4cnn(C5CCNCC5)c4)cnc3N)oc2c1-c1ccc2cn[nH]c2c1	JAK2	enzyme activity, inhibitor, TR-FRET	–	–	0.25 µM
Cc1c2c(cc3oc(=O)cc(-c4ccc(Cl)cc4)c13)C(=O)c1cccc(O)c1C2=O	mushroom tyrosinase	enzyme activity	–	together with: L-DOPA	60.1 ± 0.85 µg/mL
CC(C)n1cnc(C[C@H](NC(=O)C2CCCCN2)C(=O)N2CCC[C@H]2C(N)=O)c1 (some centres unmarked)	Thyrotropin-releasing hormone receptor (Mus musculus, UniProt P21761)	ligand displacement, radioligand	–	–	> 50 µM
CC(C)C[C@H](NC(=O)[C@H](CC(N)=O)NC(=O)[C@H](CC(C)C)NC(=O)[C@@H](NC(=O)[C@@H](NC(=O)[C@@H]1CCCN1C(=O)[C@H](CCCNC(=N)N)NC(=O)[C@H](CCCCN)NC(=O)[C@@H]1CCCN1C(=O)[C@H](CCCNC(=N)N)NC(=O)[C@@H]1CCCN1C(=O)[C@@H]1CCCN1C(=O)[C@H](CCCNC(=N)N)NC(=O)[C@H](CCCNC(=N)N)NC(=O)[C@H](CCCNC(=N)N)NC(=O)[C@H](CCC(N)=O)NC(=O)[C@H](CCCNC(=N)N)NC(=O)[C@H](CCCNC(=N)N)NC(=O)[C@H](CCCCN)NC(=O)[C@H](CCCCN)NC(=O)[C@H](CCCNC(=N)N)NC(=O)CN)[C@@H](C)O)[C@@H](C)O)C(=O)N[C@@H](Cc1ccccc1)C(=O)N1CCC[C@H]1C(=O)N[C@@H](CCC(N)=O)C(=O)N[C@H](C(=O)N1CCC[C@H]1C(=O)N[C@@H](CCCNC(=N)N)C(=O)N[C@@H](CO)C(=O)N[C@@H](CCC(N)=O)C(=O)N[C@@H](CC(=O)O)C(=O)N[C@H](C(N)=O)[C@@H](C)O)C(C)C	Mitogen-activated protein kinase 14 (Mapk14, Mus musculus, UniProt P47811)	inhibitor	–	–	1.45 ± 0.1 µM
Cc1cc(O)cc(C)c1C[C@H](NC(=O)[C@@H]1CCCN1C(=O)[C@H](CCCNC(=N)N)NC(=O)[C@H](CCCNC(=N)N)N(C)C(=O)[C@@H]1CCCN1C(=O)[C@@H](CC(C)C)NC(=O)[C@@H](CC(C)C)NC(=O)[C@H](CCCCN)NC(=O)[C@@H](CC(C)C)NC(=O)[C@@H](CC(C)C)NC(=O)CN1CCN(CC(=O)O)CCN(CC(=O)O)CCN(CC(=O)O)CC1)C(=O)N[C@H](C(=O)N[C@@H](CC(C)C)C(=O)O)C(C)(C)C	Neurotensin receptor type 1 (NTSR1, Homo sapiens, UniProt P30989)	ligand displacement, radioligand	–	pH 7.4	0.031 µM
O=S(=O)(Nc1ccc(O)c2ccccc12)c1ccc(Cl)cc1	CD38	enzyme activity, inhibitor, fluorescence	–	–	37.5 µM
CNC(=O)c1cc(C)ccc1NC(=O)c1ccc(-c2c(C)ccc3[nH]ncc23)c(C)c1	Ephrin type-B receptor 2 (EPHB2, Homo sapiens, UniProt P29323)	target engagement in cells, BRET	–	–	0.294 µM
Oc1ccc(CCC(O)CC(O)CCc2ccc(O)cc2)cc1 (centres unmarked)	Dopamine beta-hydroxylase (Bos taurus, UniProt P15101)	enzyme activity, inhibitor	–	–	941 µM
COc1ccc(C(=O)CCc2cc(C(CCc3ccc(O)cc3OC)c3ccc(O)cc3)c(O)cc2OC)cc1 (racemic)	PTGS1	enzyme activity, inhibitor	–	–	> 1 µM
CCc1ccccc1NC(=O)C(C)Sc1nnc(C2CCN(C(=O)Nc3ccccc3)CC2)n1CC (centres unmarked)	Seed linoleate 13S-lipoxygenase-1	enzyme activity, inhibitor	–	–	< 16 µM and 15.5 µM
O=S(=O)(c1ccccc1)n1cnc2ncncc21	3-hydroxyacyl-CoA dehydrogenase type-2 (HSD17B10, Homo sapiens, UniProt Q99714)	inhibitor	–	–	~1 µM
NS(=O)(=O)c1ccc(-n2cc(CNc3ccc(Cl)cc3)c(-c3ccc(OCc4ccccc4)cc3)n2)cc1	PTGS1	enzyme activity, inhibitor, absorbance	–	–	193 µM
O=C1Nc2ccc(-c3ccc(C(=O)N4CCCCC4)cc3)cc2/C1=C/c1ccc(N2CCNCC2)cc1	Fibroblast growth factor receptor 4 (FGFR4, Homo sapiens, UniProt P22455)	enzyme activity, inhibitor	–	–	26.8 µM

Some of these lines once more:
Compound	target	assay	system	setting	IC50
CC1=C2C(=O)C3CC[C@@H](C)C2(CC1)C3(C)C (some centres unmarked)	Dipeptidyl peptidase 4 (DPP4, Sus scrofa, UniProt P22411)	enzyme activity, inhibitor, absorbance	–	–	> 229 µM
CCn1c(C)c(C(=O)c2ccccc2)c(=O)n1-c1ccc(C)c(C)c1	JAK2	enzyme activity, inhibitor, ADP detection	–	–	0.0194 µM
N#Cc1c(Nc2c(Cl)ccc3ncccc23)s[nH]c1=O	NAD(+) hydrolase SARM1 (SARM1, Homo sapiens, UniProt Q6SZW1, C635A)	enzyme activity, inhibitor	–	–	17 µM
Cc1cc(O)c(C(=O)/C=C/c2ccc(Cl)cc2)c(=O)o1	CD38	enzyme activity, inhibitor, fluorescence	–	–	15 µM
